Measured values gathered from unrelated publications.
Numbered parts are unrelated; each lists some results of a single study. Positions count from the first letter of the parent shown.

Sample 1 — technique: protein-binding microarray; form: double-stranded DNA, one strand shown; matrix: in vitro; tested at: 250 nM; setting: 60-bp whole probe; together with: salmon DNA 0.4 mg/ml; relative to: random background probes; reading: higher = stronger binding; constant ends, left off below: GCCTAGCAC … GTCTTGATTCGCTTGACGCTGCTG
Target: Interferon regulatory factor 5, full length, phosphomimetic (IRF5, Homo sapiens, UniProt Q13568-2, residues 1-514, K96S/S451D/S453D/S456D/S462D)
| Oligonucleotide | log fluorescence |
| --- | --- |
| TCATAATTCTGATTGGAACTGTGCTAG | 0.315 z-score |
| GACGGTCTCCTTATCCGGACGTGCTAG | -0.06 z-score |
| GAAGGTTTCGGGTATCGGGACGTGCTA | 7.68 z-score |
| TTTTTTATCAATCATTTTAGTGTGCTA | 2.2 z-score |
| TTAGGACTGCTTATCCTTCAGTGCTAG | -0.503 z-score |
| ATCTTCATGAAGTTTTAATAAGTGCTA | 0.766 z-score |
| TCATGGTTCTTGCTTGGTACTGTGCTA | -0.136 z-score |
| AGAGCTATCACTATTCTAGGGTGCTAG | 1.5 z-score |
| TACGGTATCGACACTGGGGACGTGCTA | 1.69 z-score |
| TTAGGTATCCTTCTCATTTAGTGCTAG | 0.423 z-score |
| TTAGATTTCAGTTTCGATTTGTGCTAG | 9.48 z-score |
| TTAGATCTGAGTTTCGATTAGTGCTAG | 8.95 z-score |
| TCAGGTATCGGTCTCGGTTAGTGCTAG | 6.05 z-score |
| TCACTACTGTATTTGGCACTGTGCTAG | 0.274 z-score |
| TTTTTTTTGGAATGTCTTCCCGTGCTA | 0.692 z-score |
| GACGGTTTCGGTTCCAGGACGTGCTAG | 9.42 z-score |

Sample 2 — technique: RNA Bind-n-Seq; form: RNA; matrix: in vitro; tested at: 200 nM; setting: whole 134-nt RNA, ends assumed; together with: 150 mM LiCl; relative to: input library; reading: higher = stronger binding; library: 7-deaza-guanosine replaces G
Target: Fragile X messenger ribonucleoprotein 1, C-terminal low-complexity region (Fmr1, Mus musculus, UniProt P35922)
| Oligonucleotide | log2 enrichment |
| --- | --- |
| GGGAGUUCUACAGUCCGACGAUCUGGCUAGUCAGCAGCGGAUGUCCCCUCCAGGUUAAGAAAGCCGAACCAGAGCCGAUGCGAGAGGAGGAGAAAAUGAUUCCUCCUACGAAAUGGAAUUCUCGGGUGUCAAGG | 1.61 |
| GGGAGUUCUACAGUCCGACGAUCCAAGUCCUGUGCUACACAUCGUAUGUACCGAAUCGGUUUUUUUGGAAAAAGGUGGAAAGUAUUAUGUUACGCCGUUCGGAUCUGCACUUCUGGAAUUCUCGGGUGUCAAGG | -1.7 |
| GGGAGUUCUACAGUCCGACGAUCCCUCAAGUCCUGUGCUACACAUCGUAUGUACCGAAUCGGGCGGCGGGGCGGGGAAAGUAUUAUGUUACGCCGUUCGGAUCUGCACUUCCAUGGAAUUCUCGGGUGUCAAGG | -0.441 |
| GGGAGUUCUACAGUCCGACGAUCAGUCCUGUGCUACACAUCGUAUGUACCGAAUCGGGGAAAAGGAAAAGGGAAAAGGGGAAAGUAUUAUGUUACGCCGUUCGGAUCUGCACUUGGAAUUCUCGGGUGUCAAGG | -0.513 |
| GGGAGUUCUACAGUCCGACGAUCUGGGAGGUGGAUUUUGUUUAUUUUUUUAGCUCAUUUCCAGGGGUGGGAAUUUUUUUUUAAUAUGUGUCAUGAAAAAAGUUGUUUUUGAAAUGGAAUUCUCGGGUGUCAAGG | -0.148 |
| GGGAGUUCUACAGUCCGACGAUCUGUGCUACACAUCGUAUGUACCGAAUCGGGGAAAAAAAGGGGAAAAAGGGGUUUUUUUGGGGAAAGUAUUAUGUUACGCCGUUCGGAUCUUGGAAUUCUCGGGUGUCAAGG | -0.931 |
| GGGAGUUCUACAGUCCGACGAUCAGUCCUGUGCUACACAUCGUAUGUACCGAAUCAAAUUUAAAUUUAAAUUUUUUUAAAAAAGUAUUAUGUUACGCCGUUCGGAUCUGCACUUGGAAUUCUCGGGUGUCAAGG | -3.51 |
| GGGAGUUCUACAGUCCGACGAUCUAGCCCUGGUGGCAUGCGGGGAGGAAGAGGUGGCCUCAUGGAUCGUGGUGGUCCCGGUGGAAUGUUCAGAGGUGGCCGUGGUGGAGACAGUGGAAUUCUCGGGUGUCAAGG | 0.34 |
| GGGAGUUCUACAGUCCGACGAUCAAAAAAAGUGUGUAUUAGGAGGAGAGAGAGGAAAAAAAGAGGAAAGAAGGAAAAAAAAAAGAAUUAAAAAAAAAAAAAAGAAAAACAGAAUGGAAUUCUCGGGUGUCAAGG | 0.875 |
| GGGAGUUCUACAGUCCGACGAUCCUGUGCUACACAUCGUAUGUACCGAAUCGGGGAAAAAAAGGGAAAAAAAGGAAAAAAAGGGAAAGUAUUAUGUUACGCCGUUCGGAUCUGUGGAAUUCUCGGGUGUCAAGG | 0.192 |
| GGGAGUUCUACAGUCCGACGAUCUGCAGUCGAGCCAGCACCUGUUUCUGGACCUGCCUAAGGUAAGUGAGCUUUUCUCUCAACCUAGUUUUCAGGAGGCCUCUUCUGUCCCCUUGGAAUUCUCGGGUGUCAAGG | 0.0639 |

Sample 3 — technique: protein binding microarray; form: double-stranded DNA, one strand shown; matrix: in vitro; tested at: not given; relative to: not given; reading: higher = stronger binding
Target: Histone acetyltransferase KAT6A, both winged helices, GST fusion (KAT6A, Homo sapiens, UniProt Q92794, residues 1-181)
Setting: 8-mer, flanks averaged, mean of 2 arrays, mostly near background
Target sequence (chain): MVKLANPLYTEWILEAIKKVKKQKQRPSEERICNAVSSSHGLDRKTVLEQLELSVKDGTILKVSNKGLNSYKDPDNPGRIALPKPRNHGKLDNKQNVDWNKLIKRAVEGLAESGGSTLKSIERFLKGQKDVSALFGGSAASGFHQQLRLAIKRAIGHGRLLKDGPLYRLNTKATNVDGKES
| Oligonucleotide | E-score |
| --- | --- |
| CCTACGAG | -0.136 |
| CCGGGAAC | 0.257 |
| CGAACACA | 0.0736 |
| AAAAAGGG | -0.138 |
| AACCGAGA | -0.0042 |
| GAGTGCCC | -0.135 |
| AAAGACAG | -0.0907 |
| ATGTCACG | 0.0591 |
| CTGAGTCC | 0.051 |
| ATTCATCG | 0.0248 |
| GTACACAC | 0.125 |
| CTGATGTA | -0.0177 |
| CCTGGCGA | 0.0563 |
| GCGGCGAA | 0.248 |
| CGACCACA | -0.117 |
| GTTATGAA | -0.00823 |
| AGGTAACC | -0.0983 |
| CTATACGC | 0.06 |
| GAAAACGC | 0.139 |
| TCTTCTCA | -0.0335 |
| CCCTAGGC | -0.219 |
| CTTGACAA | 0.0715 |
| CACCCTCA | -0.285 |
| GCCGCTCA | 0.308 |
| ATAAAACA | 0.084 |

Sample 4 — technique: DHFR PCA, deep sequencing; matrix: yeast; together with: (+)-ABA 58 µM; relative to: wild-type fitted maximum; reading: higher = stronger binding
Target: ABI1, truncated, D143A, DHFR fusion (Arabidopsis thaliana)
Setting: methotrexate growth selection, single substitutions
Starting sequence: PYL1, truncated, DHFR fusion (Arabidopsis thaliana); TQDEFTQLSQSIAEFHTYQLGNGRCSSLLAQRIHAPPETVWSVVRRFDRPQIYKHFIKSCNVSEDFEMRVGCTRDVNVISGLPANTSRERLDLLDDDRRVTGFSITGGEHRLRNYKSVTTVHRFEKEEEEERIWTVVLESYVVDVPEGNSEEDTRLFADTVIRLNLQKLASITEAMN; partner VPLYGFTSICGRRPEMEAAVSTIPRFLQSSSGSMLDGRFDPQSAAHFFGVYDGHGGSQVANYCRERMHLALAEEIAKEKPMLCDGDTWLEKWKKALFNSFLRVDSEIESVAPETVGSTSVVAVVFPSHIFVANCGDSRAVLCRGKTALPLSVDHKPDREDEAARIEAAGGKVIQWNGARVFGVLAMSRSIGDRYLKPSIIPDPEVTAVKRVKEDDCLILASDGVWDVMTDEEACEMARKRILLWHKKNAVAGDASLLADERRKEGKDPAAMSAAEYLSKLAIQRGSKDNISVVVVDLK
| Change | relative binding score [%] |
| --- | --- |
| P37Q | 50 |
| D75Y | 77.5 |
| D159C | 31.4 |
| T1L | 87.6 |
| E4G | 75.5 |
| T6W | 85.4 |
| L166I | 26.1 |
| Q2E | 87.5 |
| I52K | 76.5 |
| G148Y | 43.8 |
| T106M | 92.7 |
| L94V | 54.3 |
| N85V | 87.3 |
| P50K | -11.4 |

Sample 5 — target: CCND3, cyclin fold, Cln2 fusion (human); technique: yeast growth competition, sequencing; matrix: yeast; setting: weak parent motif; relative to: not given; reading: higher = stronger binding
Starting sequence: CDKN1A docking peptide (human); SKACRRLFGPVDS; partner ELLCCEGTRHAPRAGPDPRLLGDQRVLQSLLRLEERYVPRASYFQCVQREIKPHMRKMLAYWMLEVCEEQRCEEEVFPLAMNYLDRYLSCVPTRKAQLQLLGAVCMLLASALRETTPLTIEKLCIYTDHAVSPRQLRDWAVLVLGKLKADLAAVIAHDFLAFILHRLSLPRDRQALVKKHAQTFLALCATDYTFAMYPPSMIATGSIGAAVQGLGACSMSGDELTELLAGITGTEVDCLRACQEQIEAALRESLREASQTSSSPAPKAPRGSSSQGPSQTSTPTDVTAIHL
| Change | normalised enrichment score |
| --- | --- |
| P10F | -0.158 |
| G9N | 0.204 |
| L7M | 0.552 |
| V11I | 0.468 |
| R5G | 0.101 |
| A3G | 0.0305 |
| R6G | -0.221 |
| K2C | -0.0794 |
| L7G | 0.112 |
| G9L | 0.431 |
| D12N | 0.237 |
| G9P | 0.103 |
| L7Q | 0.222 |
| V11M | 0.506 |
| D12Q | -0.0558 |
| L7P | 0.0486 |
| A3W | 0.109 |
| D12G | 0.317 |
| C4L | 0.155 |
| P10W | 0.125 |
| R5L | -0.00854 |
| C4D | 0.138 |
| A3C | 0.484 |
| F8A | 0.239 |
| G9K | -0.0437 |

Mixed results
| Molecule | target | assay | system | setting | how to read | measurement | value |
| --- | --- | --- | --- | --- | --- | --- | --- |
| PhoQ, residues 284 288 289 292 302 303 SIHLQL | PhoP, residues 12 14 15 18 19 AGCRL (Escherichia coli, UniProt P23836) | Sort-seq, measured: YFP reporter | E. coli | PhoQ-PhoP variant library, together with: 10 µM Mg2+ | relative to: high Mg2+ state, higher = stronger signaling | fold induction | 18.5 |
